Results pooled from the literature.
Compare with care: the assays were run in different laboratories. ± gives the spread as reported.
CDK2: Cyclin-dependent kinase 2 (CDK2, Homo sapiens, UniProt P24941)
Chain of UniProt P22413 (whole entry, looked up): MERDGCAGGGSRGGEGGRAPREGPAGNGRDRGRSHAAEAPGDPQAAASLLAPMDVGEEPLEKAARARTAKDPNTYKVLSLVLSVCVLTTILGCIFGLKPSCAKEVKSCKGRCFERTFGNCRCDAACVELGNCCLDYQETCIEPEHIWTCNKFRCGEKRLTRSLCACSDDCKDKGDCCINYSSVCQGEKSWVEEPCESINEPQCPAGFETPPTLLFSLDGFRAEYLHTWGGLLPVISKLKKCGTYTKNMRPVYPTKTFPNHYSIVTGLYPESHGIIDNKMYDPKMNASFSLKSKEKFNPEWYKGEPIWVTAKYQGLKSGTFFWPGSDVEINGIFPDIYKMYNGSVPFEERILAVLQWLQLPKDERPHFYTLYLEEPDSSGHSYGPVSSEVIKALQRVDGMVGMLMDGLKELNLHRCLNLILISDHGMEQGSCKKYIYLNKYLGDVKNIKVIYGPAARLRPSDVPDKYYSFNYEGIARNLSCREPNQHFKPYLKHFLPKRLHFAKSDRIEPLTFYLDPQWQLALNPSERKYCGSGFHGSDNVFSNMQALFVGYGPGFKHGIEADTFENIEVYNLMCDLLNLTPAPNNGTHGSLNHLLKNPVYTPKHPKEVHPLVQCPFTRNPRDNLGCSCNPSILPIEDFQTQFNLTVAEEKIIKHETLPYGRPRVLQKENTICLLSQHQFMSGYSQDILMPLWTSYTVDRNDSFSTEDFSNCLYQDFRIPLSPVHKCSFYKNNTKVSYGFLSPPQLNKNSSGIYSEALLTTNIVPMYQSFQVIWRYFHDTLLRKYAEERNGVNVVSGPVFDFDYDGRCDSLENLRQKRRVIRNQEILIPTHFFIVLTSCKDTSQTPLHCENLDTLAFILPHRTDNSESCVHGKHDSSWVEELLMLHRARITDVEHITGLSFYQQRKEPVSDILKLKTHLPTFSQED
Chain of UniProt Q4GZT4 (whole entry, looked up): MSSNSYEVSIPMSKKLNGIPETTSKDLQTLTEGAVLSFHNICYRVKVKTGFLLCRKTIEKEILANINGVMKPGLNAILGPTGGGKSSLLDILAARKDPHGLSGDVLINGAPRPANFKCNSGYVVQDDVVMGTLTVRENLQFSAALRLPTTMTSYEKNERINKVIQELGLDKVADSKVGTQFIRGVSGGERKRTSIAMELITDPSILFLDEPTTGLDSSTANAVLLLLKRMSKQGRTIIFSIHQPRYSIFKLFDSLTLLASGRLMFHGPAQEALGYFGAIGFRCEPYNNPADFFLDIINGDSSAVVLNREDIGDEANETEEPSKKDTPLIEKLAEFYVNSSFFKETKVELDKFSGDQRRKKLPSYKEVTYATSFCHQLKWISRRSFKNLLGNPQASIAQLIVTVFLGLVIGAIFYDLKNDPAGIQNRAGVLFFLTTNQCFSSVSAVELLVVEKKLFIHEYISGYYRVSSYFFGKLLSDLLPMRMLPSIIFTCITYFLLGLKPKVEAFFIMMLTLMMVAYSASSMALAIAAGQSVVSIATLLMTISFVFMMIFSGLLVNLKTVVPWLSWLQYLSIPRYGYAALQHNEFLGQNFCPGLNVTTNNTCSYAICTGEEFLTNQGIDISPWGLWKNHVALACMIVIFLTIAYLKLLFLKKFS

`CNCc1ccc(-c2[nH]c3cc(F)cc4c3c2CCNC4=O)cc1` — result for “AST/ALT increased incidence”: 25% (human patients; oral, 360 mg twice daily, all grades).
With `Cc1cn([C@H]2C[C@H](N=[N+]=[N-])[C@@H](CO)O2)c(=O)[nH]c1=O` the TC50 was greater than 50 µM (human PBMC; cytotoxicity, XTT; CMU08 line).
`CN1C[C@@H]2C[C@H]1CN2c1cc2c(cc1F)c(=O)c(C(=O)O)cn2C1CC1` has a percent transported of 16.3 ± 3.47% (Broad substrate specificity ATP-binding cassette transporter ABCG2 (ABCG2, Bos taurus, UniProt Q4GZT4); apical-to-basolateral transport, transepithelial transport; MDCK-II transduced with ABCG2, HBSS with HEPES; 10 µM, 4 h).
Under “patients with blurred vision”, `Cc1cc(Nc2ccc(S(F)(F)(F)(F)F)cc2)n2nc(C(C)(F)F)nc2n1` is recorded as 0% (Plasmodium vivax; human Plasmodium vivax malaria patients; oral, 600 mg).
`Cc1cc(N)c2c(OCC(C)(C)C(=O)NC(C)C)cccc2n1`: “mean revertant colonies” 72 colonies/plate (Salmonella typhimurium; reverse mutation, plate incorporation; TA100; 500 µg/plate, without S9).
With `CN1CCN(C(=O)CN(C)S(=O)(=O)c2ccc3ccccc3c2)CC1` the Kd was greater than 100 µM (CDK2; binding).
For `CC(C)Oc1c(NC(=O)c2ccc(NC(=O)[C@H](CC(N)=O)NC(=O)c3ccc(NC(=O)c4ccc(C#N)cc4)cc3)cc2)ccc(C(=O)Nc2ccc(C(=O)O)cc2)c1O`, the concentration was 10.3 ± 9.3 ng/mL (Escherichia coli ATCC 25922; neutropenic male CD-1 mice, kidney; iv then sc, 67.5 mg/kg/day, 24 h after infection, thigh infection model).
The remaining compound of `Nc1nc2c(ncn2[C@@H]2O[C@@H]3COP(=O)(O)O[C@H]4[C@@H](O)[C@H](n5cnc6c(N)ncnc65)O[C@@H]4COP(=O)(O)O[C@H]2[C@@H]3O)c(=O)[nH]1` is reported as 80% (ENPP1 (Homo sapiens, UniProt P22413); substrate; 100 µM, 3 h).
`COc1cccc(-c2n[nH]c(SCc3ccccn3)n2)c1OC`: “binucleated cells with micronuclei” 1.1% (CHO-WBL; 300 µg/mL, 3 h, without S9).
The Kd of `COc1ccccc1NC(=O)CSc1nnc(-c2ccc(F)cc2)n1C` is reported as greater than 100 µM (CDK2; binding).
For `c1csc(CNc2cc[nH]n2)c1`, “cells with numerical aberrations” read 0.5% (human peripheral blood lymphocytes (female); 1840 µg/mL, 4 h, initial, added: with S9).

Excerpt of the above:
`Cc1cc(N)c2c(OCC(C)(C)C(=O)NC(C)C)cccc2n1`: “mean revertant colonies” 72 colonies/plate (Salmonella typhimurium; reverse mutation, plate incorporation; TA100; 500 µg/plate, without S9).
